Experimental data collected from several papers.
Lines come from different studies, so protocols differ. Several values in a cell are separate wells, animals, samples, runs or records. ± gives the spread as reported.
CFTR del508-508: Cystic fibrosis transmembrane conductance regulator (CFTR, Homo sapiens, UniProt P13569, del508-508)
dncV: dncV (Vibrio cholerae, UniProt Q9KVG7)

With Cc1ccc(NC(=O)C2(c3ccc4c(c3)OC(F)(F)O4)CC2)cc1-c1cccc(C(=O)O)c1 the Emax was 120% (CFTR del508-508; chloride conductance, corrector; CFBE41o- F508del; relative to: 3 µM VX-809).
With Nc1nc2c([C@@H]3O[C@@H]4COP(=O)(O)O[C@H]5[C@@H](O)[C@H](c6scc7c(=O)[nH]c(N)nc67)O[C@@H]5COP(=O)(O)O[C@H]4[C@H]3O)scc2c(=O)[nH]1 the k2/k3 ratio was 8 (dncV; substrate; relative to: cyclization over intermediate degradation).
CCCCCn1cc(C(=O)c2cccc3ccccc23)c2ccccc21 has an Emax of 168% (Cannabinoid receptor 1 (CNR1, Homo sapiens, UniProt P21554); β-arrestin recruitment, agonist, BRET; HEK-293T).
With Nc1nc2c([C@@H]3O[C@@H]4COP(=O)(O)O[C@H]5[C@@H](O)[C@H](c6snc7c(=O)[nH]c(N)nc67)O[C@@H]5COP(=O)(O)O[C@H]4[C@H]3O)snc2c(=O)[nH]1 the k2/k3 ratio was 26 (dncV; substrate; relative to: cyclization over intermediate degradation).
With C[C@@H](NC(=O)[C@@H](CCC(N)=O)NC(=O)[C@@H](C)NC(=O)[C@@H](CCCCN)NC(=O)[C@@H](CCC(N)=O)NC(=O)[C@@H](C)NC(=O)[C@@H](CCCCN)NC(=O)[C@@H](CCC(N)=O)NC(=O)[C@@H](C)NC(=O)[C@@H](CCC(N)=O)NC(=O)[C@@H](CCCCN)NC(=O)[C@@H](C)NC(=O)[C@@H](CCC(N)=O)NC(=O)[C@@H](CCCCN)NC(=O)[C@@H](C)NC(=O)[C@@H](CCC(N)=O)NC(=O)[C@@H](C)NC(=O)[C@@H](CCCCN)NC(=O)[C@@H](CCC(N)=O)NC(=O)[C@@H](C)NC(=O)[C@@H](CCCCN)NC(=O)[C@@H](CO)NC(=O)[C@@H](Cc1ccc(O)cc1)NC(=O)CNC(=O)CNC(=O)CN)C(=O)N[C@H](CCCCN)C(=O)N[C@H](CCC(N)=O)C(=O)N[C@H](C)C(=O)N[C@H](CCCCN)C(=O)N[C@H](CCC(N)=O)C(=O)O the Rmax was 36.5 RU (binding, SPR Langmuir fit; rVλ6Wil fibrils; 300 nM, pH 7.4).
Nc1nc2c([C@@H]3O[C@H](COP(=O)(O)OP(=O)(O)OP(=O)(O)O)[C@@H](O)[C@H]3O)snc2c(=O)[nH]1 — result for “intermediate degradation rate k3”: 0.00013 ± 1e-05 s⁻¹ (dncV; substrate, HPLC; 500 µM, 37 °C).
CC(=O)N[C@@H](CCC(=O)O)C(=O)N[C@@H](CCC(N)=O)C(=O)N[C@H](C(=O)N[C@@H](CCC(=O)O)C(=O)N[C@@H](CC(C)C)C(=O)N[C@@H](CCC(=O)O)C(=O)N[C@@H](Cc1ccccc1)C(=O)N[C@@H](CC(=O)O)C(=O)O)C(C)C has a deuterium uptake of 162 ± 2 Da (Beta sliding clamp (Escherichia coli, UniProt P0A988); HDX-MS; concentration not given, 2 h, pH pD 7.4, 37 °C).
CCN(Cc1ccccc1)C(=O)CCc1nc(CN2CCN(C(=O)Cc3ccc(OC)c(OC)c3)CC2)no1 gave an activation V1/2 of -29.7 ± 1.44 mV (Potassium voltage-gated channel subfamily KQT member 4 (KCNQ4, Homo sapiens, UniProt P56696); potassium current, whole-cell patch clamp; CHO, stable; 3 µM).
For CC(C)C[C@H](NC(=O)[C@H](Cc1ccccc1)NC(=O)CNC(=O)CNC(=O)[C@@H](N)Cc1ccc(OC(C(=O)O)c2ccccc2[N+](=O)[O-])cc1)C(=O)O (stereo partly shown), the peak current was 179 ± 9 pA (K+ current, agonist, photo-uncaging; rat locus coeruleus neurons; concentration not given).
With Cc1ccc(-n2cc(C3(c4ccc5c(c4)OC(F)(F)O5)CC3)nn2)cc1-c1cccc(C(=O)O)c1 the Emax was 48.1% and 48% (CFTR del508-508; chloride conductance, corrector; CFBE41o- F508del; relative to: 3 µM VX-809).
For CC(C)[C@H](N)C(=O)N[C@@H](Cc1ccc(O)cc1)C(=O)N[C@@H](CCCCN)C(=O)N[C@H](C(=O)N[C@@H](CCCCN)C(=O)N[C@H](C(=O)N[C@@H](CCCCN)C(=O)N[C@H](C(=O)N[C@@H](CCCCN)C(=O)N[C@H](C(=O)N[C@@H](CCCCN)C(=O)N[C@H](C(=O)N[C@@H](CCCCN)C(=O)N[C@H](C(=O)N[C@@H](CCCCN)C(=O)N[C@H](C(=O)N[C@@H](CCCCN)C(=O)N[C@H](C(=O)O)[C@@H](C)O)C(C)C)[C@@H](C)O)C(C)C)[C@@H](C)O)C(C)C)[C@@H](C)O)C(C)C, the ka1 was 420000 M⁻¹ s⁻¹ (binding, SPR two-state model; rVλ6Wil fibrils; 300 nM, pH 7.4).
For CC(C)(C)c1cc(C(C)(C)C)c(-n2cc(-c3cnc4ccccc4c3O)nn2)cc1O, EC50 read “inactive” (CFTR del508-508; short-circuit current, potentiator; CFBE41o- F508del; 24 h, with: VX-809 3 µM, forskolin 10 µM).
CCCCCn1cc(C(=O)c2ccc3c(c2)CC(C)(C)C3)c2ccccc21 has an Emax increase of roughly 35% (Cannabinoid receptor 1 (CNR1, Homo sapiens, UniProt P21554, I267L/L193I/L359V); Gαi1 engagement, agonist, BRET; CB1 triple mutant; relative to: wild type receptor).

Some of these lines once more:
For CC(C)C[C@H](NC(=O)[C@H](Cc1ccccc1)NC(=O)CNC(=O)CNC(=O)[C@@H](N)Cc1ccc(OC(C(=O)O)c2ccccc2[N+](=O)[O-])cc1)C(=O)O (stereo partly shown), the peak current was 179 ± 9 pA (K+ current, agonist, photo-uncaging; rat locus coeruleus neurons; concentration not given).
With Cc1ccc(-n2cc(C3(c4ccc5c(c4)OC(F)(F)O5)CC3)nn2)cc1-c1cccc(C(=O)O)c1 the Emax was 48.1% and 48% (CFTR del508-508; chloride conductance, corrector; CFBE41o- F508del; relative to: 3 µM VX-809).
